# Measurements gathered from unrelated publications.
# Protocols differ between the studies behind these lines. Numbers after ± are the reported error.
SMILES,target or system,assay,system,setting,scale,measurement,result
COc1ccc(C)cc1NC(=O)OC1CC2CCCC(C1)N2Cc1ccc(CC[18F])cc1 (centres unmarked),,,"BALB/c mice, EMT6 tumour, heart",1 h,,tissue uptake,2.13 ± 0.45 %ID/g
CS(C)(=O)=Nc1ccc(-c2ccc(-c3nc4cc(O[C@@H]5CO[C@H]6[C@@H]5OC[C@H]6O)[nH]c4cc3F)cc2)cc1,,,"female C57BL/6 mouse, plasma","intravenous, 3 mg/kg",,clearance,18 mL/min/kg
CSCC[C@H](NC(=O)CNC(=O)[C@H](CC(=O)O)NC(=O)[C@@H](NC(=O)[C@@H](NC(=O)[C@@H](NC(=O)CNC(=O)[C@H](CCC(N)=O)NC(=O)[C@H](CCSC)NC(=O)[C@H](CC(=O)O)NC(=O)[C@H](C)NC(=O)[C@H](C)NC(=O)[C@@H](NC(=O)[C@H](CO)NC(=O)[C@@H](N)CC(C)C)[C@@H](C)O)C(C)C)C(C)C)[C@@H](C)O)C(=O)N[C@@H](C)C(=O)N[C@@H](CO)C(=O)NCC(=O)N[C@@H](CC(C)C)C(=O)N[C@@H](CC(=O)O)C(=O)N[C@@H](CCCCN)C(=O)N[C@@H](CC(=O)O)C(=O)N[C@@H](Cc1ccc(O)cc1)C(=O)N[C@@H](CC(C)C)C(=O)N[C@@H](CCCCN)C(=O)N1CCC[C@H]1C(=O)N[C@@H](CC(=O)O)C(=O)N[C@@H](CC(=O)O)C(=O)O,,,"human, serum","intravenous, 3.33 mg/kg, patients, infusion",,half-life,6.42 min
CC(C)(CCCC/C=C/CCCCCC(C)(C)C(=O)O)C(=O)O,,,"C57BL/6J mice, liver","oral, 30 mg/kg, 1 h",,conversion to acyl-CoA,11.9%
N=C(N)NCCC[C@@H]1NC(=O)[C@H](CCCCNC(=O)CCOCCOCCOCCOCCNC(=O)CN2CCN(CC(=O)O)CCN(CC(=O)O)CCN(CC(=O)O)CC2)NC(=O)[C@@H](Cc2ccccc2)NC(=O)[C@H](CC(=O)O)NC(=O)CNC1=O [indium-111 labelled],,,"athymic nude mice, female, U-87 MG glioma xenograft, tumour and liver","intravenous, 72 h",reference: tumour over liver,tumour to tissue ratio,2.22 ± 0.48
CC(C)C[C@H](NC(=O)CNC(=O)[C@H](C)NC(=O)[C@H](CCCNC(=N)N)NC(=O)[C@H](Cc1c[nH]cn1)NC(=O)[C@H](C)NC(=O)[C@@H](N)CC(=O)O)C(=O)N[C@@H](CCC(N)=O)C(=O)N[C@@H](Cc1ccccc1)C(=O)N1CCC[C@H]1C(=O)N[C@H](C(=O)NCC(=O)N[C@@H](CCCNC(=N)N)C(=O)N[C@H](C(=O)N[C@@H](Cc1c[nH]cn1)C(=O)N[C@@H](CCCNC(=N)N)C(=O)N[C@@H](CC(C)C)C(=O)N[C@@H](CC(C)C)C(=O)N[C@@H](CCCNC(=N)N)C(=O)N[C@@H](CCCCN)C(N)=O)C(C)C)C(C)C,,haemolysis,human red blood cells,1 h,,HD10,32 µM
[11CH3]n1c(=O)n(CCCO)c(=O)c2c1nc(Oc1cccc(OC(F)(F)F)c1)n2Cc1ccc(Cl)cc1,,ex vivo biodistribution,"Sprague Dawley rat, brain",5 min post injection,,tracer uptake,0.51 ± 0.12 %ID/g
CCCCCc1cc(O)c2c(c1)OC(C)(C)C1CCC(C(=O)OC3OC(C(=O)O)C(O)C(O)C3O)=CC21 (centres unmarked),,tube adsorption method,human liver microsome incubation,"50 µM, 30 min",,unbound fraction,0.43 ± 0.071
CCCC[C@H](NC(=O)CNC(=O)CNC(=O)c1ccc(NN)nc1)C(=O)N[C@H]1CC(=O)NCCCC[C@@H](C(N)=O)NC(=O)[C@H](Cc2c[nH]c3ccccc23)NC(=O)[C@H](CCCNC(=N)N)NC(=O)[C@@H](Cc2ccccc2)NC(=O)[C@H](Cc2c[nH]cn2)NC1=O [technetium-99m labelled],,,"C57 mouse, B16/F1 melanoma, brain","2 h, added: L-lysine 12 mg",,uptake,0.03 ± 0.02 %ID/g
N#Cc1c(O)c(Cl)c(Cl)c(C#N)c1Cl,,,"healthy human volunteers, plasma","oral, dose not given, geometric mean, added: rosuvastatin",,rosuvastatin AUC(0-24 h),62.6 ng·h/mL
CN(C)C(CNC(=O)Nc1cc(C(F)(F)F)ccc1N1CCOCC1)c1ccncc1 (centres unmarked),,,"mouse, serum","intraperitoneal, 180 mg/kg single dose",,amylase,373 U/L
COC(=O)C[C@](O)(CCCC(C)(C)OC(C)=O)C(=O)O[C@@H]1C(OC)=C[C@]23CCCN2CCc2cc4c(cc2[C@H]13)OCO4,,,"CD1 mouse, stomach","oral, 1 mg/kg, 24 h, below quantification limit 1.00 ng/mL",,tissue concentration,not detected
CC[C@H](C)[C@H](NC(=O)CNC(=O)[C@H](Cc1c[nH]c2ccccc12)NC(=O)[C@@H](NC(=O)[C@@H](NC(=O)[C@H](CC(C)C)NC(=O)[C@H](CCC(N)=O)NC(=O)[C@H](CC(C)C)NC(=O)[C@@H](N)CC(C)C)[C@@H](C)O)C(C)C)C(=O)N[C@@H](CCCCN)C(=O)N[C@@H](CCC(N)=O)C(=O)N[C@@H](CC(C)C)C(=O)N[C@@H](CCC(N)=O)C(=O)N[C@@H](C)C(=O)N[C@@H](CCCNC(=N)N)C(=O)N[C@H](C(=O)N[C@@H](CC(C)C)C(N)=O)[C@@H](C)CC,,C2 column,,,,RP-HPLC retention time,18.2 min
CCCCCCCCCCCCC(=O)O.O=C1CCCC2C3CCCN4CCCC(CN12)C34 (centres unmarked),,electrical conductivity,water,298.15 K,,standard Gibbs energy of aggregation,-8.36 kcal/mol
CSCC[C@@H]1NC(=O)[C@@H]2CSSC[C@H](NC(=O)[C@H](CO)NC(=O)[C@H](C)N)C(=O)N[C@@H](CCCNC(=N)N)C(=O)N[C@@H]([C@@H](C)O)C(=O)N3CCC[C@H]3C(=O)N[C@@H](CCCCN)C(=O)N[C@@H](CC(=O)O)C(=O)N[C@H]3CSSC[C@H](NC(=O)[C@H](CCCCN)NC(=O)[C@H](CCCNC(=N)N)NC(=O)[C@H](CC(N)=O)NC1=O)C(=O)N[C@@H](CCCCN)C(=O)N[C@H]1CSSC[C@H](NC(=O)[C@@H]4CCCN4C(=O)[C@H](CC(=O)O)NC(=O)[C@H](C)NC3=O)C(=O)N[C@@H](C)C(=O)N[C@@H](CCCCN)C(=O)N[C@@H](CCC(=O)O)C(=O)N[C@@H]([C@@H](C)O)C(=O)NCC(=O)N[C@@H](CSSC[C@@H](C(N)=O)NC(=O)[C@H](CCCNC(=N)N)NC(=O)[C@H](CC(N)=O)NC1=O)C(=O)N1CCC[C@H]1C(=O)N[C@@H](Cc1ccc(O)cc1)C(=O)NCC(=O)N[C@@H](CCCCN)C(=O)N2,,,"DA rat, pristane-induced arthritis, serum","subcutaneous, 0.1 mg/kg once weekly, end of 21-day trial",,direct bilirubin,0.007 mg/dL
CCCC[C@H]1C(=O)N(C)[C@@H](CCCC)C(=O)N[C@@H](CC(C)C)C(=O)N[C@H](C(=O)NCC(N)=O)CSCC(=O)N[C@@H](Cc2ccc(O)cc2)C(=O)N2CCCC[C@H]2C(=O)N[C@@H](CC(N)=O)C(=O)N2C[C@H](O)C[C@H]2C(=O)N[C@@H](CN)C(=O)N[C@@H](CC(C)C)C(=O)N2C[C@H](O)C[C@H]2C(=O)N[C@@H](Cc2c[nH]c3ccccc23)C(=O)N[C@@H](CCN)C(=O)N[C@@H](Cc2cn(CC(=O)O)c3ccccc23)C(=O)N1C,,RP-HPLC,human serum 10%,18 h,,serum stability,stable
CC(C)[C@H](NC(=O)CNC(=O)[C@H](CCC(N)=O)NC(=O)[C@H](C)N)C(=O)O,,severe intensity,human,"10 mg/kg, 3 days, thrice daily dosing",,subjects with adverse events,0%
CC(C)C[C@H](NC(=O)[C@H](CCCCN)NC(=O)[C@H](CCC(=O)O)NC(=O)[C@H](C)NC(=O)[C@@H](NC(=O)[C@H](CCCCN)NC(=O)[C@H](CC(=O)O)NC(=O)[C@H](Cc1ccc(O)cc1)NC(=O)[C@H](Cc1ccccc1)NC(=O)[C@H](C)NC(=O)[C@H](CCCCN)NC(=O)[C@H](CC(C)C)NC(=O)[C@H](Cc1c[nH]c2ccccc12)NC(=O)[C@@H](N)CC(=O)O)C(C)C)C(=O)N[C@@H](CCCCN)C(=O)N[C@@H](CCC(=O)O)C(=O)N[C@@H](C)C(=O)N[C@@H](Cc1ccccc1)C(=O)N1CCC[C@H]1C(=O)N[C@@H](CC(=O)O)C(=O)N[C@@H](Cc1c[nH]c2ccccc12)C(=O)N[C@@H](C)C(=O)N[C@@H](CCCCN)C(=O)N[C@@H](C)C(=O)N[C@@H](C)C(=O)N[C@@H](Cc1ccc(O)cc1)C(=O)N[C@@H](CC(=O)O)C(=O)N[C@@H](CCCCN)C(=O)N[C@@H](C)C(=O)N[C@@H](C)C(=O)N[C@@H](CCC(=O)O)C(=O)N[C@@H](CCCCN)C(=O)N[C@@H](C)C(=O)N[C@@H](CCCCN)C(=O)N[C@@H](CCC(=O)O)C(=O)N[C@@H](C)C(=O)N[C@@H](C)C(=O)O,,,"cynomolgus monkey male, plasma","intravenous infusion, 75 mg/kg, day 1, 30 min infusion",,Cmax,1230 µg/mL
O=C(O)CCC(NP(=O)(O)OCCC[C@@H](NC(=O)CCC(NC(=O)CCCCCNC(=O)c1ccc([18F])cc1)C(=O)O)C(=O)O)C(=O)O (some centres unmarked),PC-3 tumour model,,"host not given, heart","intravenous, 2 h, tumour-bearing",,tracer uptake,0.21 %ID/g
N=C(N)NCc1ccc(C(=O)NCCCC[C@H](NC(=O)N[C@@H](CCC(=O)O)C(=O)O)C(=O)O)cc1[211At],,,"SCID mouse, PC-3 xenografts, heart",14 h,,tissue uptake,0.48 ± 0.12 %ID/g
O=C([O-])C[N+]12CC(=O)[O][Re-2]1[O]P(=O)([O-])C2.[C-]#[O+].[C-]#[O+].[C-]#[O+] (centres unmarked),,HPLC,aqueous solution,"1 d, pH 5, room temperature",,isomer fraction at equilibrium,6%
"O=C(c1ccc(F)cc1)C1CCN(C2Cc3c(cccc3OCC[18F])CC2O)CC1 (single isomer, unassigned; (-))",,,"male Sprague-Dawley rat, striatum","intravenous, 30 min",,brain uptake,0.886 %ID/g
C/C=C/C=C/C/C=C/CCCCCCCc1cccc(O)c1O,,,"female Kunming mice, tumour-bearing, heart","intravenous, 10 mg/kg, 2 h",,tissue concentration,8130 ± 1020 ng/g
CC[C@H](C)C(=O)N1CCC(NC(=O)Nc2ccc(OC(F)(F)F)c(F)c2)CC1,,,healthy volunteers,"oral, 8 mg single dose, 14 (unit not given)",,subjects with any TEAE,33.3%
CCc1c2c(nc3ccc(OC4OC(C(=O)O)C(O)C(O)C4O)cc13)-c1cc3c(c(=O)n1C2)COC(=O)C3(O)CC (centres unmarked),,,"human patients, plasma","intravenous, 3 mg/m^2 of parent drug",,AUC(0-inf),39 ng·h/mL
CN[C@](C)(C[18F])C(=O)O,,,"SCID mouse U87 xenograft, lung","15 min, post injection",,tissue uptake,3.7 ± 0.4 %ID/g
N=C(N)NCCC[C@@H]1NC(=O)[C@H](CCCCNC(=O)CC[C@H](NC(=O)CCOCCOCCOCCOCCNC(=O)CC[C@H](NC(=O)CN2CCN(CC(=O)O)CCN(CC(=O)O)CCN(CC(=O)O)CC2)C(=O)NCCOCCOCCOCCOCCC(=O)N[C@@H](CCC(=O)NCCCC[C@@H]2NC(=O)[C@@H](Cc3ccccc3)NC(=O)[C@H](CC(=O)O)NC(=O)CNC(=O)[C@H](CCCNC(=N)N)NC2=O)C(=O)NCCCC[C@@H]2NC(=O)[C@@H](Cc3ccccc3)NC(=O)[C@H](CC(=O)O)NC(=O)CNC(=O)[C@H](CCCNC(=N)N)NC2=O)C(=O)NCCCC[C@@H]2NC(=O)[C@@H](Cc3ccccc3)NC(=O)[C@H](CC(=O)O)NC(=O)CNC(=O)[C@H](CCCNC(=N)N)NC2=O)NC(=O)[C@@H](Cc2ccccc2)NC(=O)[C@H](CC(=O)O)NC(=O)CNC1=O [indium-111 labelled],,,"athymic nude mice, female, U-87 MG glioma xenograft, tumour and kidney","intravenous, 24 h",reference: tumour over kidney,tumour to tissue ratio,1.46 ± 0.8
CN(C)CC1CCCCC1(O)c1cccc(O)c1 (centres unmarked),P-glycoprotein,,Caco-2 TC7,"1 µM, 3 h, pH 6.8 apical, 7.4 basolateral, added: cyclosporin A 10 µM",,efflux ratio,2.9
Cc1ccc(C(C)C)cc1.Cn1ccnc1CNCCNc1ccnc2cc(Cl)ccc12.[Cl-].[Cl][Ru+],,shake-flask method,water/n-octanol,pH 6.6,,distribution coefficient D,2.06 ± 0.78
